Measured values pooled from the literature.
Every numbered part comes from another study and shows a few of its results, in no order. Changes are numbered by the printed parent chain.

Sample 1
Target: CRIPT, C-terminal peptide
Technique: DHFR complementation, deep sequencing
Matrix: yeast
Notes: single substitutions, model-inferred values
Reference: wild type
Direction: higher = weaker binding
Starting sequence: ERBIN, PDZ domain 1 (human); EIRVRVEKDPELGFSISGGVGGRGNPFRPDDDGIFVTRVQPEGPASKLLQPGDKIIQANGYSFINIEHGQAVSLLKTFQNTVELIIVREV; partner TKNYKQTSV
Substitution | binding free energy change
G19E | 1.19 kcal/mol
R28M | 0.0938 kcal/mol
I55V | 0.197 kcal/mol
I64Q | -0.0274 kcal/mol
G43P | 0.465 kcal/mol
G21M | 0.219 kcal/mol
S73N | 0.0324 kcal/mol
R3L | -0.2 kcal/mol

Sample 2
Target: CREB3L3, bZIP domain (human)
Technique: DHFR protein complementation
Matrix: yeast
Notes: single substitutions, most at no-binding floor
Reference: wild-type JUN-FOS pair
Direction: higher = stronger binding
Starting sequence: JUN, bZIP domain (human); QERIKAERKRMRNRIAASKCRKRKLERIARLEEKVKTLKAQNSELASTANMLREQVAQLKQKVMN; partner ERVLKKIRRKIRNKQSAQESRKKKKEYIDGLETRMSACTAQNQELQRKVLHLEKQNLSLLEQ
Substitution | binding fitness
E32P | -1.49 natural log
L31H | -1.47 natural log
Q55K | -1.49 natural log
R30N | -1.53 natural log
T48K | -1.54 natural log
E44V | -1.42 natural log
E33S | -1.48 natural log
T37L | -1.53 natural log

Further values, each from its own experiment
P1: viral docking peptide; KGVKRKLFAEDSS; partner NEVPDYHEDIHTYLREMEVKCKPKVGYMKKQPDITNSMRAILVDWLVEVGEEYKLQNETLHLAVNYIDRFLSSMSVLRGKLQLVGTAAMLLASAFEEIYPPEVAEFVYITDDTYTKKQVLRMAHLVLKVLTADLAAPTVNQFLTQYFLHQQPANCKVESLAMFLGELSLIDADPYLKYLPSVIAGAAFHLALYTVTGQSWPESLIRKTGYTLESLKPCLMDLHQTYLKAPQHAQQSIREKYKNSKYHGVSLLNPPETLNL
Substance | tested on | test | system | setting | scale | measurement | result
CC[C@@H](C(N)=O)N1CCCC1=O | Sarcocystis neurona | parasite activity |  | 10 µM, 96 h |  | activity class | inactive
P1 S12H | CCNA2, cyclin fold, Cln2 fusion (human) | yeast growth competition, sequencing | yeast | strong parent motif | reference: not given, higher = stronger binding | normalised enrichment score | 5.76
CCC1(CC)C(=O)C=CNC1=O | mouse MPNST tumor cells | high-content nuclear imaging, measured: cell number |  | 10 µM, 12 h, mean of 2 replicates | reference: plate mean, higher = more cells | nuclei count | 0.626 z-score
PhoQ, residues 284 288 289 292 302 303 SLANKL | PhoP, residues 12 14 15 18 19 TPLRH (Escherichia coli, UniProt P23836) | Sort-seq, measured: YFP reporter | E. coli | PhoQ-PhoP variant library, added: 10 µM Mg2+ | reference: high Mg2+ state, higher = stronger signaling | fold induction | 4.05

Excerpt of the above (sample 1):
Substitution | binding free energy change
S73N | 0.0324 kcal/mol
R3L | -0.2 kcal/mol
